Measured values from different studies.
Compare with care: the assays were run in different laboratories. Substitutions count along the parent as printed. ± gives the spread as reported.
P1: BICD2-miniTurboID C-terminus (Homo sapiens); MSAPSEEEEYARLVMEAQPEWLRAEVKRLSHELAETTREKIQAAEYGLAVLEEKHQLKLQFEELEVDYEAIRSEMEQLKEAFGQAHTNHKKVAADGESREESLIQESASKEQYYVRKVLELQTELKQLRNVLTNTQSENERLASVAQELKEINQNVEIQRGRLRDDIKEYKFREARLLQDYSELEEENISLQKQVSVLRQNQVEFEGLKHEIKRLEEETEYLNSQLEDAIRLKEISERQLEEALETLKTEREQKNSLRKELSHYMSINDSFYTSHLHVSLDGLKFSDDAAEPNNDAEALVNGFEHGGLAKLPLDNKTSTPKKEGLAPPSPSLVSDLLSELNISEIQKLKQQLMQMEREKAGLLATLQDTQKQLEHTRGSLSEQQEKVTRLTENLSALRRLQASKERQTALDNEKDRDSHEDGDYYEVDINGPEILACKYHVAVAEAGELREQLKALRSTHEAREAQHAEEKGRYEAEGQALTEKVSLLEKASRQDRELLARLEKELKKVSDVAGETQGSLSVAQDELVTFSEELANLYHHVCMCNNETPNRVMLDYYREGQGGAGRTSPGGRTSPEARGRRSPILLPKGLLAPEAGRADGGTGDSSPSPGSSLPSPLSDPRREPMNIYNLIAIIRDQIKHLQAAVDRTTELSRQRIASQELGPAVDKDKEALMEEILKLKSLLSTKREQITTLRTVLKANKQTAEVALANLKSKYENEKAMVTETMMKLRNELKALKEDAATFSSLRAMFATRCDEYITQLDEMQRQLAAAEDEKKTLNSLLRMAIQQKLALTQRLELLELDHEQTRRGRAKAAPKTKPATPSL
Chain of UniProt G5EC86 (whole entry, looked up): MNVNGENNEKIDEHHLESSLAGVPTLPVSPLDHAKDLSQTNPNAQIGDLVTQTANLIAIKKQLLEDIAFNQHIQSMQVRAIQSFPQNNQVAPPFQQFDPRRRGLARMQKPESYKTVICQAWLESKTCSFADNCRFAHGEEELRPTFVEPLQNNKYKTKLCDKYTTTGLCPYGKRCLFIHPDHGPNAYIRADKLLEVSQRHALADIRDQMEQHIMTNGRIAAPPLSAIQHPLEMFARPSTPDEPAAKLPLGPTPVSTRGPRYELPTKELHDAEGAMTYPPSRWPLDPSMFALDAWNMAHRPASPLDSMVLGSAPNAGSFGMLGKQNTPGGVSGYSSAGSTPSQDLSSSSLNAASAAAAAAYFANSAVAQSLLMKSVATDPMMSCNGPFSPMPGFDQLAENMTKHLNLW
Chain of UniProt Q15020 (whole entry, looked up): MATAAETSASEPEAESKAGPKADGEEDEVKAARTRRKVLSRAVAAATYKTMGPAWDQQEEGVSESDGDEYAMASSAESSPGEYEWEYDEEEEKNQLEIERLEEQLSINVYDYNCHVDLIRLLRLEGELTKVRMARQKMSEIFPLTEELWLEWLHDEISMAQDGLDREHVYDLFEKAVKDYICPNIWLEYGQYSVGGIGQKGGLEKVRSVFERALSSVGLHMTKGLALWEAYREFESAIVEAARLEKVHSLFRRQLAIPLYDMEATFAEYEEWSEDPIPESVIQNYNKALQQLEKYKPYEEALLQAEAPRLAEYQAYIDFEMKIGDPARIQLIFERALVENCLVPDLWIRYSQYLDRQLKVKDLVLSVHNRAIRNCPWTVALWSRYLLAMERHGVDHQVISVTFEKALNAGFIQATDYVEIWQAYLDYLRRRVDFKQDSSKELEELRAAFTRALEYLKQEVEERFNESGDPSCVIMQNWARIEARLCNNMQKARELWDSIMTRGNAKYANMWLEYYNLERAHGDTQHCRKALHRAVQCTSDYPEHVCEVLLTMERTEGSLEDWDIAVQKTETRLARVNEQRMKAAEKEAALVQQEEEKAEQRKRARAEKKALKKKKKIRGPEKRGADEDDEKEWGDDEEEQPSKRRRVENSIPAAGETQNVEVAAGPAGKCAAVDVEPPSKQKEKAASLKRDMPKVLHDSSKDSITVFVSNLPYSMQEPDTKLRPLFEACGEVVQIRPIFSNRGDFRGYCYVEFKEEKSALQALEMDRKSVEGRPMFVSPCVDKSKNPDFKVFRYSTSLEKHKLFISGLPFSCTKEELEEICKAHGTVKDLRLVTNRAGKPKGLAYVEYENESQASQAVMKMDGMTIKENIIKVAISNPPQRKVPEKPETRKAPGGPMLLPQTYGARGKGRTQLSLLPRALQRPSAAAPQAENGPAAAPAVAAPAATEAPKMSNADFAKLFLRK

UGGAA (ssRNA)
binding (SART3 697-786 (Homo sapiens, UniProt Q15020); ITC; RNA): no binding

P1 N188T
relative binding (VPS41 (Homo sapiens); proximity biotinylation, western blot; 500 µM, 40 minutes, read off a plot; reference: unchanged protein, higher = more binding): 0.68

CAUUCUACGUUAUUAAUAAUAAAUAAUAAUAAUAAUAAUAAUCUGAAUAGCG (ssRNA)
Kd (oma-1 1-182 (Caenorhabditis elegans, UniProt G5EC86); EMSA; RNA; added: Zn2+): 21 ± 1 nM

ACCCAAAACGTTGACCAAAGTTAACT (dsDNA)
binding (WRKY6 full length assumed (Nicotiana attenuata, UniProt Q5QJ44); EMSA; double-stranded DNA, one strand shown): binds

UUAUUAUUUGUU (ssRNA)
binding (oma-1 110-182 (Caenorhabditis elegans, UniProt G5EC86); EMSA; RNA; added: Zn2+): no binding

ACTAGTACGCGGGTAGTGAAAAATCCCCAAATTGCCCCCA (dsDNA)
binding (Abscisic stress-ripening protein full length assumed (Triticum aestivum, UniProt A0A3B6JHN4); EMSA; double-stranded DNA, one strand shown): binds

Repeated from above:
ACTAGTACGCGGGTAGTGAAAAATCCCCAAATTGCCCCCA (dsDNA)
binding (Abscisic stress-ripening protein full length assumed (Triticum aestivum, UniProt A0A3B6JHN4); EMSA; double-stranded DNA, one strand shown): binds
